Published values collected from several papers.
A part holds a random share of what one study measured. Positions count from the first letter of the parent shown.

Study 1
Target: ABI1, truncated, D143A, DHFR fusion (Arabidopsis thaliana)
Technique: DHFR PCA, deep sequencing
Matrix: yeast
Setting: methotrexate growth selection, single substitutions
Together with: (+)-ABA 1.4 µM
Baseline: wild-type fitted maximum
Direction: higher = stronger binding
Quantity: relative binding score
Parent: PYL1, truncated, DHFR fusion (Arabidopsis thaliana); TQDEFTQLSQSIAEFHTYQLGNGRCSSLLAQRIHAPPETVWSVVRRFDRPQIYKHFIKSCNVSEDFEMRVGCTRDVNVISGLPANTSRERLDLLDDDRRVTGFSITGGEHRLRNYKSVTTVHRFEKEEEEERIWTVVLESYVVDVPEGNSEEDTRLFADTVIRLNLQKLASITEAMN
V76N: -6.38%
L112K: 2.44%
E89G: 4.77%
R46L: -1.97%
P37R: -1.4%
L28S: 4.69%
D153T: -11.6%
R88D: -10.1%
F47E: -3.19%
Y53G: -5.36%
N85Y: 58.6%
S104H: -5.53%
W41K: -17.1%
E131P: 84.4%
V100D: -3.55%
V142L: 1.04%
T135Q: -11.7%
C72K: 0.675%

Study 2
Target: CCNF, cyclin fold, Cln2 fusion (human)
Technique: yeast growth competition, sequencing
Matrix: yeast
Setting: strong parent motif
Baseline: not given
Direction: higher = stronger binding
Quantity: normalised enrichment score
Parent: SLBP docking peptide (human); ARYKRKLLINDFG
K6T: 1.78
G13R: 1.56
Y3T: 2.57
A1T: 2.63
G13M: 2.01
R2G: 2.12
I9L: 2.15
R5M: 2.32
F12H: 0.706
I9R: 1.5
Y3A: 4.82
G13I: 1.86
A1D: 1.69
N10F: 3.01
R2M: 1.04
N10Q: 1.76
I9N: 1.63
K4P: 1.34
D11K: 2.6

Study 3
Target: Interferon regulatory factor 7, full length, phosphomimetic (IRF7, Homo sapiens, UniProt Q92985, residues 1-503, S471D/S472D/S475D/S476D/S477D/S483D/S484D/S487D)
Technique: protein-binding microarray
Form: double-stranded DNA, one strand shown
Matrix: in vitro
Tested at: 2200 nM top
Setting: 60-bp whole probe
Together with: salmon DNA 0.4 mg/ml
Baseline: random background probes
Direction: higher = stronger binding
Quantity: fitted relative affinity
All sequences stand within: GCCTAGCAC … GTCTTGATTCGCTTGACGCTGCTG
Residues (chain): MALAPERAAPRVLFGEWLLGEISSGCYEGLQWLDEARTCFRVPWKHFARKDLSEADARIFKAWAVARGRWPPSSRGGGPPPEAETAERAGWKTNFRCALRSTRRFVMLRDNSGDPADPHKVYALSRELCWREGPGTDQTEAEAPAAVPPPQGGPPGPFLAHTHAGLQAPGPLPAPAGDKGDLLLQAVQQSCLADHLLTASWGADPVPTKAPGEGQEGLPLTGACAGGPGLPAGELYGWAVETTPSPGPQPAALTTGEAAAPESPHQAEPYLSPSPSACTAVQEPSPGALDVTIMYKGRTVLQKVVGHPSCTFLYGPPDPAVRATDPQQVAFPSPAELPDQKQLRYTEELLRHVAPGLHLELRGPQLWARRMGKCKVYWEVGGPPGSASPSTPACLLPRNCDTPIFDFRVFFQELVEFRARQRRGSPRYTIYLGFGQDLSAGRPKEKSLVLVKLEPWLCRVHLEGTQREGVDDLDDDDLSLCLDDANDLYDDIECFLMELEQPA
TTAGGTATCGGGAATCGGTTAGTGCTA: 0.137 z-score
GACGATATCACACTGGAGACGTGCTAG: 0.325 z-score
GACGATTTCGGGACTTGAGACGTGCTA: 1.29 z-score
TTAGATCACAGACTGGATTAGTGCTAG: -0.169 z-score
GACGAGATCAGTATCGAGACGTGCTAG: 0.329 z-score
GACGGTATCGGTATCGGCACGTGCTAG: 0.432 z-score
GGAAATTCTCATTTCCAATTGTGCTAG: 0.954 z-score
TTAGGTTTCGGGTATCGCTTAGTGCTA: 5.95 z-score
GTCGATCTCAGTTTCGAGACGTGCTAG: 3.71 z-score
GACGAAATCGGGTATCGAGACGTGCTA: 0.292 z-score
GACGGACTGGGGGATCGGGACGTGCTA: -0.124 z-score
TTAGGTTCCAGTTTCGGTTAGTGCTAG: 8.33 z-score
TTAGGTTTCCTTTTCCGTTAGTGCTAG: 5.29 z-score
GACGATTTCAGTATCCAGACGTGCTAG: 1.23 z-score
TTTCATATATATATGAATATGTGCTAG: 2.24 z-score
TTAGGACTGGACTATCGGTCAGTGCTA: -0.734 z-score
AGCCAGGCAACCTATGGCCTGTGCTAG: -1.49 z-score
GACGGTATCGACTTTAGGGACGTGCTA: -0.179 z-score
TCAGCTCTGTGCATAGTACTGTGCTAG: 0.499 z-score
CCCCATCTTGTTCCCAGAGAGTGCTAG: 1.18 z-score
GACGGTATACTTATCCTGACGTGCTAG: 0.464 z-score
GGCGGACTGGGTTTCGGGACGTGCTAG: 0.319 z-score
GACGATCTCAGTATCGAGCCGTGCTAG: 0.0836 z-score
GACGGTCTCATTTTCCTGACGTGCTAG: 1.69 z-score
TTAGATATCAGTATCGTTTAGTGCTAG: 0.68 z-score

Study 4
Target: Centromere-binding protein 1, full length, His-tagged (CBF1, Saccharomyces cerevisiae, UniProt P17106, residues 1-351)
Chain of UniProt P17106 (whole entry, looked up): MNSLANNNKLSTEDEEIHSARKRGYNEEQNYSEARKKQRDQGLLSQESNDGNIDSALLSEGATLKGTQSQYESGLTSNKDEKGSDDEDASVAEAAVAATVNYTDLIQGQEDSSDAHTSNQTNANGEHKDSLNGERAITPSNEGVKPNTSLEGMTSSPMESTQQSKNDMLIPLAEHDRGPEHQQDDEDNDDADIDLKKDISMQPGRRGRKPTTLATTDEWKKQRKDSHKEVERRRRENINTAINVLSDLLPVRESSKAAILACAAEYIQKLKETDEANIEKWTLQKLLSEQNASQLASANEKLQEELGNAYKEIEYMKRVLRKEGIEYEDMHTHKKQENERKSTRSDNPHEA
Technique: competition protein-binding microarray
Form: double-stranded DNA, one strand shown
Matrix: in vitro
Tested at: 2 µM
Setting: whole 60-bp probe, lowest competitor level
Together with: Pho4 competitor, 0.05 µM
Direction: higher = stronger binding
Quantity: fluorescence intensity
CTTCTGTAAATTTGCAGAGTGGGTGGACGCGCCCCGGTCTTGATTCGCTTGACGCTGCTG: 66.1 a.u.
CATTAGCGTCTCTTTCACGTGCGGTCTGAGAACTACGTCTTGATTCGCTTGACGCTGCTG: 638 a.u.
TGTGGCTACGCTGGTCACGTGTTAGCAGAAGTCTTAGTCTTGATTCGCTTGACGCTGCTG: 11600 a.u.
AAAGCGGTAATTTGAACAGTGGGTGCAGATATCTATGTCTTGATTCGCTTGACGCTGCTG: 80.9 a.u.
TGAAAGGTTCTTTGACACATGTAAAGCTCCCTAAGTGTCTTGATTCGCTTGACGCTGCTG: 98.5 a.u.
GGGACCTCCAGCAAGCACATGGCATCCTTTTATAAGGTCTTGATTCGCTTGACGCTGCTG: 128 a.u.
ATACCGGCTCGATAACATGTGTCAAATTCTCACCGGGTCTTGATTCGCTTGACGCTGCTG: 133 a.u.
TTAATATTTTCGGTGCTCGTGGTGAGGCAGAAGCTGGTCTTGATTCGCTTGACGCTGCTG: 87 a.u.
AAATTACTAAGTTTTCACGTGCGTTACCCCGTATGAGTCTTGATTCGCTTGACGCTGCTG: 980 a.u.
CGTCCTAGTGATTGTCACAAAACTTCCATGAGGAAGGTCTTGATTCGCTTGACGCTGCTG: 81.9 a.u.
GTCTTGTCTCATTGGCTTGTGGGTGTCCCCACTTCAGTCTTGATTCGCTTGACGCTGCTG: 73 a.u.
GAAACCATCTTTTTCAACGTGTTGGAAACAGTAGGTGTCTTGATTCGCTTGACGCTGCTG: 97.1 a.u.
AAAGCGGTAATTTTTCACGTGAGGTCAAATATCTATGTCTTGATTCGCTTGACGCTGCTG: 1690 a.u.
GCACTTCGCATTAAGCGCGTGAAACTATTGGCTCTCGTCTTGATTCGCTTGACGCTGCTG: 105 a.u.
CCAATCTGGGCAAAGCGCGTGAAGATCAAGACTCGCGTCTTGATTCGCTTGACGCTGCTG: 63.5 a.u.
CTTTCCCGATCTTTTCACGTGATATTAGCACATTTGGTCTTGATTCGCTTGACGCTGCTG: 3430 a.u.
CTTTCCCGATCTTAGCACGTGTTTTTAGCACATTTGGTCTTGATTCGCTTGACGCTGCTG: 2180 a.u.
TTTTTGCAGATCCCAATATTTCTACAGCCTTTGGGAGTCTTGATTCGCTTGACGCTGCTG: 74.4 a.u.
CTGTTGGATATGCTTGTCGTGATGGAATACTGTTCTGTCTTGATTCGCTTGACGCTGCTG: 82.1 a.u.
AGCTGCAATTAATGCAGTTGAGAACTAGCTTTTTTTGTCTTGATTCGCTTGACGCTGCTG: 90.7 a.u.
CCCCGAAATTGAGTGCACATGCTCGCAAGATAATATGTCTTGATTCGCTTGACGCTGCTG: 302 a.u.
GCAGCTGACAGAAAACATGTGCTTTGACTTGGGGACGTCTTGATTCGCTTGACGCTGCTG: 206 a.u.
TGCGCAACAACTTGCTGTGTGGGTGTATGTCTAGAAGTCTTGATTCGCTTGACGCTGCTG: 59 a.u.
TAAACACCATCACTACACGTTTTAAACAAAACAAACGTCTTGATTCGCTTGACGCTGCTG: 116 a.u.
ACCAGAAAAAAAACACACGTGATGGCCACCAGGAGCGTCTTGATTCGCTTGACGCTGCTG: 3180 a.u.

Study 5
Target: CREB3L3, bZIP domain (human)
Technique: DHFR protein complementation
Matrix: yeast
Setting: single substitutions, most at no-binding floor
Baseline: wild-type JUN-FOS pair
Direction: higher = stronger binding
Quantity: binding fitness
Parent: JUN, bZIP domain (human); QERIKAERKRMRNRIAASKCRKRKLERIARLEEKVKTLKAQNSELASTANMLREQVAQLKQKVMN; partner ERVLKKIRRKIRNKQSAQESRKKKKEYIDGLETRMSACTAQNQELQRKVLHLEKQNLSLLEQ
T37G: -1.42 natural log
L45K: -1.54 natural log
L52E: -1.36 natural log
L52C: -1.58 natural log
K34R: -1.45 natural log
R53L: -1.49 natural log
A40F: -1.22 natural log
A29G: -1.41 natural log
Q55Y: -1.45 natural log
L52M: -1.54 natural log
K39V: -1.49 natural log
Q55G: -1.43 natural log
E33L: -1.37 natural log
A57C: -1.27 natural log
L45S: -1.42 natural log
R30F: -1.45 natural log
R30V: -1.56 natural log
S43W: -1.4 natural log
M51V: -1.56 natural log
K34C: -1.45 natural log
R30A: -1.41 natural log
L45H: -1.49 natural log
Q41E: -1.36 natural log
K36D: -1.56 natural log

For quick reference, copied from above (study 2):
G13R: 1.56
R5M: 2.32
K6T: 1.78
K4P: 1.34
A1D: 1.69
Y3T: 2.57
G13M: 2.01
G13I: 1.86
N10F: 3.01
R2M: 1.04
I9R: 1.5
A1T: 2.63
Y3A: 4.82
I9N: 1.63
I9L: 2.15
D11K: 2.6
